Published values from different studies.
Lines come from different studies, so protocols differ.
Organism: Pseudomonas aeruginosa

| Compound | test | test system | setting | scale | MIC |
| --- | --- | --- | --- | --- | --- |
| CO[C@@H](C(N)=O)[C@H](NC(=O)c1ccc(NC(=O)c2ccc([N+](=O)[O-])cc2)cc1)C(=O)Nc1ccc(C(=O)Nc2ccc(C(=O)Nc3ccc(C(=O)O)cc3)c(O)c2OC(C)C)cc1 | – | DSM 24600 ESBL 1 | – | – | 4 µg/mL |
| CC[C@@H](C)[C@@H](NC(=O)[C@@H](C)NC(=O)[C@@H](CCCCN)NC(=O)[C@@H](CC(C)C)NC(=O)[C@@H](C)NC(=O)[C@H](NC(=O)[C@@H](CCCCN)NC(=O)[C@@H](CC(C)C)NC(=O)[C@H](NC(=O)[C@@H](CCCCN)NC(=O)[C@@H](CCCCN)NC(=O)[C@@H](CCCCN)NC(=O)[C@@H](C)NC(=O)[C@@H](CCCCN)NC(=O)[C@@H](CO)NC(=O)[C@@H](Cc1ccccc1)NC(=O)[C@H](NC(=O)[C@@H](CCCCN)NC(=O)[C@@H](CC(C)C)NC(=O)[C@@H](Cc1ccccc1)NC(=O)[C@@H](CO)NC(=O)[C@@H](CCCCN)NC(=O)[C@@H](Cc1c[nH]c2ccccc12)NC(=O)[C@@H](CCCCN)NC(C)=O)[C@H](C)O)C(C)C)[C@H](C)O)C(=O)N[C@H](CO)C(=O)N[C@H](CCCCN)C(N)=O | broth microdilution | PAO1 | 24 h, 37 °C | – | 1.3 µM |
| CCCCCCCCCC(=O)NCCCC[C@@H](NC(=O)[C@@H](CC(C)C)NC(=O)[C@@H](CCCCN)NC(=O)[C@@H](CCCCNC(=O)[C@@H](CC(C)C)NC(=O)[C@@H](CCN)NC(=O)[C@@H](CCCCNC(=O)[C@@H](Cc1ccccc1)NC(=O)[C@H](N)CCCN)NC(=O)[C@@H](Cc1ccccc1)NC(=O)[C@H](N)CCCN)NC(=O)[C@@H](CC(C)C)NC(=O)[C@@H](CCN)NC(=O)[C@@H](CCCCNC(=O)[C@@H](Cc1ccccc1)NC(=O)[C@H](N)CCCN)NC(=O)[C@@H](Cc1ccccc1)NC(=O)[C@H](N)CCCN)C(N)=O | broth microdilution | PAO1 | 37 °C | – | 4 µg/mL |
| O=C(NCCNCCO)c1cn(Cc2ccccc2)c2c(Cl)c(OCc3ccc(C(F)(F)F)cc3)c(Cl)cc2c1=O | – | ATCC 27853 | – | ≥80% growth inhibition | > 32 µg/mL |
| CC1(C)S[C@@H]2[C@H](NC(=O)[C@H](NC(=O)C3=C(O)C(c4ccccc4F)NC3=O)c3ccccc3)C(=O)N2[C@H]1C(=O)O (stereo partly drawn) | broth microdilution | PAO1, Mueller-Hinton broth | – | – | 25 µg/mL |
| COc1ccc2ccc3c(c2c1)C=[N+]1C2CCCCC2[N+]2=Cc4ccc(OCCN5CCCCC5)cc4[O][Au-]21[O]3.F[P-](F)(F)(F)(F)F (stereo not drawn) | bacterial growth, broth microdilution | carbapenem-resistant clinical isolate | 24 h | – | 10 µM |
| N=C(N)NCCC[C@H](NC(=O)[C@H](Cc1c[nH]c2ccccc12)NC(=O)[C@H](CCC(N)=O)NC(=O)[C@H](Cc1c[nH]c2ccccc12)NC(=O)[C@H](CCCNC(=N)N)NC(=O)[C@@H](N)CCCNC(=N)N)C(=O)NCCCC[C@H](NC(=O)[C@H](CCCNC(=N)N)NC(=O)[C@H](Cc1c[nH]c2ccccc12)NC(=O)[C@H](CCC(N)=O)NC(=O)[C@H](Cc1c[nH]c2ccccc12)NC(=O)[C@H](CCCNC(=N)N)NC(=O)[C@@H](N)CCCNC(=N)N)C(=O)NCCCCCC(N)=O | broth microdilution | ATCC 27853 | 24 h, 37 °C | – | 23 µM |
| CC(C)=CCc1c(O)ccc2c1O[C@H]1c3cc4c(cc3OC[C@@H]21)OC(C)(C)C=C4 | – | ATCC 10145 | – | – | 128 µg/mL |
| COc1ccc2ccc3c(c2c1)C=[N+]1C2CCCCC2[N+]2=Cc4c(C)cccc4[O][Au-]21[O]3.F[P-](F)(F)(F)(F)F (stereo not drawn) | bacterial growth, broth microdilution | carbapenem-resistant | 24 h | – | > 20 µM |
| CC[C@@H](C)[C@@H](NC(=O)[C@@H](C)NC(=O)[C@@H](CCCCN)NC(=O)[C@@H](CC(C)C)NC(=O)[C@@H](CC(C)C)NC(=O)[C@H](NC(=O)[C@@H](CCCCN)NC(=O)[C@@H](CC(C)C)NC(=O)[C@@H](CCCCN)NC(=O)[C@@H](CCCCN)NC(=O)[C@@H](CCCCN)NC(=O)[C@@H](CCCCN)NC(=O)[C@@H](C)NC(=O)[C@@H](CCCCN)NC(=O)[C@@H](CO)NC(=O)[C@@H](Cc1ccccc1)NC(=O)[C@H](NC(=O)[C@@H](CCCCN)NC(=O)[C@@H](CC(C)C)NC(=O)[C@@H](Cc1ccccc1)NC(=O)[C@@H](CO)NC(=O)[C@@H](CCCCN)NC(=O)[C@@H](Cc1c[nH]c2ccccc12)NC(=O)[C@@H](CCCCN)NC(C)=O)[C@H](C)O)[C@H](C)O)C(=O)N[C@H](CO)C(=O)N[C@H](CCCCN)C(N)=O | broth microdilution | PAO1 | 24 h, 37 °C | – | 2.5 µM |
| CC(CCCOC(=O)CCC[N+](C)(C)C)C1CCC2C3CCC4CC(OC(=O)CCC[N+](C)(C)C)CCC4(C)C3CC(OC(=O)CCC[N+](C)(C)C)C12C (stereo not drawn) | microbial growth, broth dilution | ATCC27853 | 16 h | – | 250 µg/mL |
| CCCCCCCCCCCCCCCC(=O)N(C)[C@H](CO)C(=O)N[C@H](C)C(=O)NCC(=O)N(C)[C@@H]1C(=O)N[C@@H](C)C(=O)N[C@H](C(=O)O)Cc2ccc(O)c(c2)-c2cc1ccc2O[C@@H]1O[C@@H](C)[C@H](O)[C@@H](O)[C@H]1O | – | PAO1 | cation-adjusted Mueller Hinton II | – | inactive |
| Cc1[nH]c(=O)c(CNC(=O)c2ccc(C(F)(F)F)nc2)c2c1CCCC2 | agar double dilution | clinical isolate 17-1 | – | – | > 128 µg/mL |
| COc1ccc2ccc3c(c2c1)C=[N+]1C2CCCCC2[N+]2=Cc4cccc(OC)c4[O][Au-]21[O]3.F[P-](F)(F)(F)(F)F (stereo not drawn) | bacterial growth, broth microdilution | carbapenem-resistant | 24 h | – | 10 µM |
| CCOC(=O)c1ccc2c(c1)n(CC)[c]([Au-]([Cl])([Cl])[Cl])[n+]2CC | broth dilution | PA7 DSM 24068 | 20 h, 37 °C | – | 58.2 µM |
| CC(=O)N[C@@H](Cc1c[nH]c2ccccc12)C(=O)N[C@@H](Cc1c[nH]c2ccccc12)C(=O)N[C@@H](Cc1c[nH]c2ccccc12)C(=O)N[C@@H](Cc1c[nH]c2ccccc12)C(=O)NCCCC[C@@H]1NC(=O)[C@H](CCCNC(=N)N)NC(=O)[C@H](CCCNC(=N)N)NC(=O)[C@H](CCCNC(=N)N)NC(=O)[C@H](CCCNC(=N)N)NC(=O)[C@H](CCCNC(=N)N)NC1=O | broth microdilution | PAO1 | 37 °C | – | > 212 µg/mL |
| NCC1OC(OC2C(N)CC(N)C(OC3OC(CO)C(O)C(N)C3O)C2OCCCCn2cc(CNc3nc(NCc4cn(CCCCOC5C(OC6OC(CN)C(O)CC6N)C(N)CC(N)C5OC5OC(CO)C(O)C(N)C5O)nn4)nc(NCc4cn(CCCCOC5C(OC6OC(CN)C(O)CC6N)C(N)CC(N)C5OC5OC(CO)C(O)C(N)C5O)nn4)n3)nn2)C(N)CC1O (stereo not drawn) | microbial growth, broth dilution | PAO1 | – | – | > 128 µg/mL |
| CC(C)C[C@H](NC(=O)[C@H](CC(N)=O)NC(=O)[C@H](CCCNC(=N)N)NC(=O)[C@@H](CC(C)C)NC(=O)[C@H](Cc1ccc(C(F)(F)F)cc1)NC(=O)[C@H](CC(=O)O)NC(=O)[C@H](CCCCN)NC(=O)[C@@H](CC(C)C)NC(=O)[C@H](CCCNC(=N)N)NC(=O)[C@H](CCC(N)=O)NC(=O)[C@@H](NC(=O)[C@@H](CC(C)C)NC(=O)[C@H](CCCNC(=N)N)NC(=O)[C@H](CCCCN)NC(=O)[C@H](Cc1ccc2ccccc2c1)NC(=O)CN)C(C)C)C(=O)N[C@H](C(N)=O)C(C)C | broth microdilution | PAO1 | – | – | 6.2 to 12.5 µM |

Some of these lines once more:
| Compound | test | test system | setting | scale | MIC |
| --- | --- | --- | --- | --- | --- |
| CC1(C)S[C@@H]2[C@H](NC(=O)[C@H](NC(=O)C3=C(O)C(c4ccccc4F)NC3=O)c3ccccc3)C(=O)N2[C@H]1C(=O)O (stereo partly drawn) | broth microdilution | PAO1, Mueller-Hinton broth | – | – | 25 µg/mL |
| COc1ccc2ccc3c(c2c1)C=[N+]1C2CCCCC2[N+]2=Cc4c(C)cccc4[O][Au-]21[O]3.F[P-](F)(F)(F)(F)F (stereo not drawn) | bacterial growth, broth microdilution | carbapenem-resistant | 24 h | – | > 20 µM |
